Values quoted from earlier work, collected from citations in different studies.
± gives the spread as reported. Bridge positions count the residues as written; N and C are the ends. Ends that are not written are not given here.
Chain of UniProt P22001 (whole entry, looked up): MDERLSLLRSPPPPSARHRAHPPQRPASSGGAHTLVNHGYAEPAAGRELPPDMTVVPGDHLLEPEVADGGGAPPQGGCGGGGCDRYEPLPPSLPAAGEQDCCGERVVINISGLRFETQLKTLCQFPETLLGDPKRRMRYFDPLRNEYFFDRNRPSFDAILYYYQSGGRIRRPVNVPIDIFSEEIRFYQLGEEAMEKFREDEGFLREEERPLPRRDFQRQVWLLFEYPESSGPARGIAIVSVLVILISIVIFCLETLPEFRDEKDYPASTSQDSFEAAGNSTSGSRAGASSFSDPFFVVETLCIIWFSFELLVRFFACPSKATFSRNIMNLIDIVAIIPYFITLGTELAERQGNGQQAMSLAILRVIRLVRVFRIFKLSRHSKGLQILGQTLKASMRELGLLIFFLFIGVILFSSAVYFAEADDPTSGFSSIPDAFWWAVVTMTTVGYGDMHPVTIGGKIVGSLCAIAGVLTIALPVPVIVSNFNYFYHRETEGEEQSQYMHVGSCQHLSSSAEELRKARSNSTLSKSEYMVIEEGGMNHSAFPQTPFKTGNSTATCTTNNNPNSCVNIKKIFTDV
Chain of UniProt P28335 (whole entry, looked up): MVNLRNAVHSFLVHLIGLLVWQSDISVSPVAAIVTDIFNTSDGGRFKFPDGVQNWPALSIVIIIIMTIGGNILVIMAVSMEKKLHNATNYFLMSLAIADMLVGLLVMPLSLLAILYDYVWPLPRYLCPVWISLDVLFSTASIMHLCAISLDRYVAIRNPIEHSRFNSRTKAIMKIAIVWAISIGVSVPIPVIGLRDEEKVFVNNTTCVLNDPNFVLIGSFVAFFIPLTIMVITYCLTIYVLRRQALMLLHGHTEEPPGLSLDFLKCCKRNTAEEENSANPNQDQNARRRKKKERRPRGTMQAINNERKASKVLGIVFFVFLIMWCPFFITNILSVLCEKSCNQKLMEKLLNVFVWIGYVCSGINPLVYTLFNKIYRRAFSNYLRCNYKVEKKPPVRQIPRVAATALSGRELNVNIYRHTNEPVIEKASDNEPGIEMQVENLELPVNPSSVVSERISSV
Chain of UniProt P25100 (whole entry, looked up): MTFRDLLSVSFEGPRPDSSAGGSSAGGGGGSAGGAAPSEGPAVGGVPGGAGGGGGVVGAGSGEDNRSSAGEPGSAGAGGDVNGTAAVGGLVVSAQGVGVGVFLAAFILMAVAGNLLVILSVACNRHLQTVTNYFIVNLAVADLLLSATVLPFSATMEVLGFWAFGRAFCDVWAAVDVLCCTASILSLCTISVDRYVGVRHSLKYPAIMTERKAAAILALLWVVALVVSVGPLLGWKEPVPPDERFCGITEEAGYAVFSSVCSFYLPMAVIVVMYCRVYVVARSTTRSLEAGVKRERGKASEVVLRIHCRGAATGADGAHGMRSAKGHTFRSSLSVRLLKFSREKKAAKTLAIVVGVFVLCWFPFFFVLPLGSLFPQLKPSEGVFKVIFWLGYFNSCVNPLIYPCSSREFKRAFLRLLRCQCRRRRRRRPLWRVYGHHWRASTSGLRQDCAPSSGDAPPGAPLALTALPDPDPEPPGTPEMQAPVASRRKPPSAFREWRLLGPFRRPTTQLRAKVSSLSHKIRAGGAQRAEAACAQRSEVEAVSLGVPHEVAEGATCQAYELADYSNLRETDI
Chain of UniProt Q2M2I8 (whole entry, looked up): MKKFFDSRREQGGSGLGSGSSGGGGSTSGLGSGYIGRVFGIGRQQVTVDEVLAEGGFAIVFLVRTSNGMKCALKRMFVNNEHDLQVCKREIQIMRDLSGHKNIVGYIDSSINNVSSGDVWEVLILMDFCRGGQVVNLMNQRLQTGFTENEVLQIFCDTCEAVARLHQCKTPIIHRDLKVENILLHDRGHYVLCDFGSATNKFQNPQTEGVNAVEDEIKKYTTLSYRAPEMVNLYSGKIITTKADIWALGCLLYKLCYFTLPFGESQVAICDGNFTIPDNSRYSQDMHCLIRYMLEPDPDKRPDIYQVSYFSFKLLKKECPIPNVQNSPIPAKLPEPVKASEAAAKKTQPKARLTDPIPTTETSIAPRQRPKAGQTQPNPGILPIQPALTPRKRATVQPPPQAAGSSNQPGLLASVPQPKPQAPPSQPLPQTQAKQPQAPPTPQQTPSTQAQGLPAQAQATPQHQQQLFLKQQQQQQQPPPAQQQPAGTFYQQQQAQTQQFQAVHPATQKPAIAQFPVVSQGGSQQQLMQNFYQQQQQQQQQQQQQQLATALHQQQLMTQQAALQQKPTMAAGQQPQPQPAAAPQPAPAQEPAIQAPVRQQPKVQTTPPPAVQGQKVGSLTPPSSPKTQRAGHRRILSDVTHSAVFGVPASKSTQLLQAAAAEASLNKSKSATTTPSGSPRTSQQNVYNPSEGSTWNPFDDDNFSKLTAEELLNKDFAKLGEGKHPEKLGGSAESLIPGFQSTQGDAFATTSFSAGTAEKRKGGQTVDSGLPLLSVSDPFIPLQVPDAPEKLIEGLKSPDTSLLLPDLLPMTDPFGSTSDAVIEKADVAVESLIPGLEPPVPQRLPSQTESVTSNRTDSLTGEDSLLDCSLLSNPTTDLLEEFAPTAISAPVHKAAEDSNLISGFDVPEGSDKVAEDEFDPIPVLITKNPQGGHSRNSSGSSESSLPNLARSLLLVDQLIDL
Chain of UniProt P33533 (whole entry, looked up): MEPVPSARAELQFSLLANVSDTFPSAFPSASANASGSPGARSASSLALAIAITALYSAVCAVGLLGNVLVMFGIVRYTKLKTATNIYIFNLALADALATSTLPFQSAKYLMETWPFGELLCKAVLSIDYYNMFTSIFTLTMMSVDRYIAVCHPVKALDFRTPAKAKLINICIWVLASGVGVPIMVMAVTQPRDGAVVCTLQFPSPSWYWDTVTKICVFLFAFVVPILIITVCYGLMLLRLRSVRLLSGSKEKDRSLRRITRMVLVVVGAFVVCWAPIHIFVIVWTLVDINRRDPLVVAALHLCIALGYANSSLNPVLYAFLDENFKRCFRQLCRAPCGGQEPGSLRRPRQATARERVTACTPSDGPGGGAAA

Substance | target | test | test system | setting | endpoint | result
N[C@@H](Cc1c[nH]cn1)C(=O)O | EgtD (Mycolicibacterium smegmatis) | binding, isothermal titration calorimetry | – | – | Kd | 290 ± 14 µM
CHPGPPC (disulfide 1-7) (disulfide) | Streptavidin (Streptomyces avidinii, UniProt P22629) | binding | – | – | Kd | 0.67 µM
C=CCN(CC=C)CCc1c[nH]c2ccc(OC)cc12 | Alpha-1D adrenergic receptor (ADRA1D, Homo sapiens, UniProt P25100) | – | – | – | Ki | > 10 µM
Dmt-c(SEtS)[DCys-Aci-DPen]OH | Delta-type opioid receptor (Oprd1, Rattus norvegicus, UniProt P33533) | antagonist | – | added: DPDPE | Kd | 0.0044 ± 0.0014 µM
OC[C@H]1O[C@H](O[C@H]2[C@H](O)[C@@H](O)C(O)O[C@@H]2CO)[C@H](O)[C@@H](O)[C@@H]1O (mixture of isomers) | maltose-binding protein E. coli | – | – | MalFGK2 complex outward-facing | Kd | ~120 µM
[Mg+2] | PhoQ | binding | – | – | Kd | 300 µM
COc1ccc(CCN2CCN(C/C=C/I)CC2)cc1OC [iodine-123 labelled] | sigma-1 receptor mouse | cold saturation binding | brain membranes | – | Kd | 0.00379 µM
CC[N+](CC)(CC)CC | Potassium voltage-gated channel subfamily A member 3 (KCNA3, Homo sapiens, UniProt P22001) | binding | – | positive control | Kd | 10000 µM
CSCC[C@H](NC(=O)[C@H](CC(C)C)NC(=O)[C@H](Cc1ccccc1)NC(=O)[C@H](CC(=O)O)NC(=O)[C@H](Cc1ccc(O)cc1)NC(=O)[C@H](Cc1c[nH]c2ccccc12)NC(=O)[C@@H](NC(=O)[C@@H](NC(=O)[C@H](CCCNC(=N)N)NC(=O)[C@@H](N)CO)C(C)C)[C@@H](C)O)C(=O)N[C@@H](CCC(=O)O)C(=O)N[C@@H](CC(=O)O)C(=O)N[C@H](C(=O)N[C@@H](CCCCN)C(=O)N[C@@H](CO)C(=O)N[C@@H](CCCNC(=N)N)C(=O)O)[C@@H](C)O | Gαi | binding, surface plasmon resonance | – | – | Kd | 3.9 µM
CC[C@H](C)[C@@H]([C@@H](CC(=O)N1CCC[C@H]1[C@H](OC)[C@@H](C)C(=O)N[C@H](C)[C@@H](O)c1ccccc1)OC)N(C)C(=O)[C@@H](NC(=O)[C@@H](NC)C(C)C)C(C)C | tubulin | binding, fluorescence polarization | – | – | Kd | 0.291 µM
OCc1ccc(-c2nn(Cc3ccccc3)c3ccccc23)o1 | soluble guanylate cyclase, bovine lung | binding, equilibrium dialysis | – | without NO or CO, added: Mn2+ | Kd | 52 µM
CCS(=O)(=O)N1CC(CC#N)(n2cc(-c3ncnc4[nH]ccc34)cn2)C1 | AP2-associated protein kinase 1 (AAK1, Homo sapiens, UniProt Q2M2I8) | binding | – | – | Kd | 0.017 µM
CCCC(=O)O[C@@H]1[C@@H](C)[C@@]2(O)[C@@H](C=C(CO)C[C@]3(O)C(=O)C(C)=C[C@@H]23)[C@@H]2C(C)(C)[C@]12OC(=O)CCC | PKC delta with C1a only | binding | – | – | Kd | 0.13 µM
C=CCN(CC=C)CCc1c[nH]c2ccccc12 | 5-hydroxytryptamine receptor 2C (HTR2C, Homo sapiens, UniProt P28335) | binding | cloned human receptor | added: [3H]mesulergine | Ki | 0.385 µM
COc1ccc2cccc(N3CCN(CCNC(=O)c4ccc(F)cc4)CC3)c2c1 | 5-HT1A receptor | binding | – | – | Kd | 0.00079 µM

Some of these lines once more:
Substance | target | test | test system | setting | endpoint | result
CSCC[C@H](NC(=O)[C@H](CC(C)C)NC(=O)[C@H](Cc1ccccc1)NC(=O)[C@H](CC(=O)O)NC(=O)[C@H](Cc1ccc(O)cc1)NC(=O)[C@H](Cc1c[nH]c2ccccc12)NC(=O)[C@@H](NC(=O)[C@@H](NC(=O)[C@H](CCCNC(=N)N)NC(=O)[C@@H](N)CO)C(C)C)[C@@H](C)O)C(=O)N[C@@H](CCC(=O)O)C(=O)N[C@@H](CC(=O)O)C(=O)N[C@H](C(=O)N[C@@H](CCCCN)C(=O)N[C@@H](CO)C(=O)N[C@@H](CCCNC(=N)N)C(=O)O)[C@@H](C)O | Gαi | binding, surface plasmon resonance | – | – | Kd | 3.9 µM
Dmt-c(SEtS)[DCys-Aci-DPen]OH | Delta-type opioid receptor (Oprd1, Rattus norvegicus, UniProt P33533) | antagonist | – | added: DPDPE | Kd | 0.0044 ± 0.0014 µM
CHPGPPC (disulfide 1-7) (disulfide) | Streptavidin (Streptomyces avidinii, UniProt P22629) | binding | – | – | Kd | 0.67 µM
